Measurements pooled from the literature.
Every numbered part comes from another study and shows a few of its results, in no order.

Set 1 — technique: aptamer microarray, sandwich; molecule type: DNA with 2'F-ANA; sample: in vitro; tested at: 200 nM; with: Cy3 exosite-II aptamer, 400 nM; direction: higher = stronger binding; sequence: GGTTGGTGTGGTTGG
Target: Prothrombin, mature alpha-thrombin (F2, Homo sapiens, UniProt P00734)
Setting: whole 15-mer aptamer, many near background
For `2'F-ANA at 1 2 3 4 7 8 11 12 15`, “mean fluorescence intensity” read 329 a.u.
`2'F-ANA at 1 4 5 8 14`: “mean fluorescence intensity” 50.3 a.u.
`2'F-ANA at 1 2 6 8 13 14` — result for “mean fluorescence intensity”: 53.3 a.u.
`2'F-ANA at 4 5 6 7 8 14 15`: “mean fluorescence intensity” 46 a.u.
`2'F-ANA at 2 5 6 8 10`: “mean fluorescence intensity” 46.5 a.u.
For `2'F-ANA at 4 6 9 10 12 13 15`, “mean fluorescence intensity” read 104 a.u.
`2'F-ANA at 2 4 5 6 11 15`: “mean fluorescence intensity” 55.2 a.u.
Under “mean fluorescence intensity”, `2'F-ANA at 2 4 7 8 9 10 12 14` is recorded as 67.1 a.u.
For `2'F-ANA at 1 3 4 5 8 10 13 14 15`, “mean fluorescence intensity” read 55 a.u.
`2'F-ANA at 2 4 7 9 12 15`: “mean fluorescence intensity” 633 a.u.

Set 2 — technique: protein binding microarray; molecule type: double-stranded DNA, one strand shown; sample: in vitro; tested at: not given; reference: not given; direction: higher = stronger binding
Target: Histone acetyltransferase KAT6A, both winged helices, GST fusion (KAT6A, Homo sapiens, UniProt Q92794, residues 1-181)
Setting: 8-mer, flanks averaged, mean of 2 arrays, mostly near background
Residues (chain): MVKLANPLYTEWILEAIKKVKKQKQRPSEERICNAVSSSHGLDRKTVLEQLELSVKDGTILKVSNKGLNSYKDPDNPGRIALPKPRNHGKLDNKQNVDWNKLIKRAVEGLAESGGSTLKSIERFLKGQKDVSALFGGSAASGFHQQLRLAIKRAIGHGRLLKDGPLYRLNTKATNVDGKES
`ACTATTAA` gave an E-score of -0.134.
`AGTGAACC` gave an E-score of 0.0376.
`AACTCAGG` has an E-score of -0.222.
The E-score of `AATGTCAC` is reported as -0.0372.
`ACATTCCC` has an E-score of 0.03.
For `GAAACAGC`, the E-score was -0.0287.
The E-score of `AGGAGAGC` is reported as -0.103.
With `GTCTTTTA` the E-score was -0.0839.
For `TCAGGCCA`, the E-score was -0.0444.
With `CTGTCTCC` the E-score was 0.00583.

Set 3 — technique: RNA Bind-n-Seq; molecule type: RNA; sample: in vitro; tested at: 365 nM; reference: no-protein control; direction: higher = stronger binding
Target: RNA binding protein fox-1 homolog 2, RRM domain, GST-SBP tag (RBFOX2, Homo sapiens, UniProt O43251-10, residues 100-194)
Setting: natural RNA segment, single round, ends assumed
Constant ends, left off below: GGGAGUUCUACAGUCCGACGAUC … UGGAAUUCUCGGGUGCCAA
Construct (chain): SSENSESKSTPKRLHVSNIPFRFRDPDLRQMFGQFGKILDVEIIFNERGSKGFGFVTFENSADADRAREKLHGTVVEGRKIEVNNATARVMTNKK
`AGCCCAUCGAGAAGGGGCCUAGGGCGAAAUGAACACAAAGCCUCGAAAUCAGUGCGCUCCAGCUGAUCUCGUUCCGCCGGUUCCCCUUGGCCGCCAGUUCCGUUCUCCUC` — result for “RBNS enrichment (R)”: 0.349.
`GAGCUAGGGGGAGGAGUCAUUGUGGCACAAGUAUUUGUACAUACUCUGCUUCUCUCUGUCAGCGUCCUGCUGCUCUAGAAGACUGUCCGUGGAUGAGUUUAGUGUACAGA`: “RBNS enrichment (R)” 0.306.
For `GCCCUCUUUAUUUUGUUGUUUGUUUCUCCAGAGAGUAAACGCUUUGUAGUUCUUUCUUUAAAAAACAUUUUUUUUAAAGAAGAAGAAGCCACUUGAACCCUCAAUAAAGG`, “RBNS enrichment (R)” read 0.516.
`UUCUUGGGUGGACUCAACUGUAACCACAGUUUAUUAGUUGCUUAGAAGUGGAUUUUUAAAAAACAGUUAAAUGUGUGUGCAUAACACACAAGUAAUGACACACUACUAUU`: “RBNS enrichment (R)” 0.307.
`AGUUUUAAAACAUCUUUAGUUUUCAAAGUAAACUGGAUAUGUGGACCUUAAAGUUAUUGAGUUUAAGCUACAAAUUGUAACGUCAUUACUGGACAUGUCAGCAUCAACCC`: “RBNS enrichment (R)” 0.389.
For `CUAGAAGCUGUAAUGGAUGCUCUUUUCCUCCGAUUAUGUAGAAAUGUGCAUUCAAAAGGAAUAGAACGAAUUUCUGUCAUCCCGGUGACCCUCCUGGUGCCGGGCUCUUG`, “RBNS enrichment (R)” read 0.315.
For `UCUUUUUUCCUAUUUUAAAAGUUCUAGUGGUAACACAAACUGUAAAUUUGAGUCAGAAUGUUUGGAGAAAUGUUGUUUUUUUUUUUUUCAGAGACUACUUUGUCACUCAC`, “RBNS enrichment (R)” read 1.42.
`UGGGUAAAUUGCAUUUCAAACUAACUCAAUAUUCAGUGUUUUUGUUAAAACCUUGAACACUCCAGUUGACUGCAUCUGUGCUAGUGUGGUAUAUCAUACAUGAUCUUAAA`: “RBNS enrichment (R)” 1.24.
Under “RBNS enrichment (R)”, `GCAAGUACCAGACCAGUGAACAGCUCCGGAGGAACAGGUUGUUCUCUGACCUCUACACGUAUGCCACGCUUGUACCCACACACGCGCACACACACAGACUUAUAAUGCAA` is recorded as 2.47.
`GUCACUUUCCAUAUUAUACCCUCUAUAAAGUUGUCGAAUUGGAUGGGAGUUCUUUCUAACUAGCCAUCACACCUGUAGCUUUAGUUGCUUUGUGUGGCUUCUGGCCUAGC`: “RBNS enrichment (R)” 0.674.
`CUCCUCCCCCUAAAAAGCUGACUCACUGUGAGUGACCUUGGGCAAGUUCCCAAACCUCCUUGUGCCUCAGUUUCCCCAUCUGGAAAAAAUGGGGCCACCUCUUGCCAGCA` — result for “RBNS enrichment (R)”: 0.595.
Under “RBNS enrichment (R)”, `UUGUUGAGAAGCUUCUGUUUUAAGGAAUUUCUCCUUCUUGUCUCAUUCCUGCCUUUCCUGGGAAGGGCCUGGCCCUGAUCUAGAGUCUUAGCUAAGGAGCUGAGAAACAG` is recorded as 0.297.

Mixed results
For `PhoQ, residues 284 288 289 292 302 303 ALASRC`, the fold induction was 0.571 (PhoP, residues 12 14 15 18 19 AQCLL (Escherichia coli, UniProt P23836); Sort-seq, refers to: YFP reporter; E. coli; PhoQ-PhoP variant library, with: 10 µM Mg2+; reference: high Mg2+ state, higher = stronger signaling).

Repeated from above (set 1):
Under “mean fluorescence intensity”, `2'F-ANA at 2 4 7 8 9 10 12 14` is recorded as 67.1 a.u.
For `2'F-ANA at 1 3 4 5 8 10 13 14 15`, “mean fluorescence intensity” read 55 a.u.
